{"data": "Measured values pooled from the literature", "EIF2AK3": "Eukaryotic translation initiation factor 2-alpha kinase 3 (EIF2AK3, Homo sapiens, UniProt Q9NZJ5)", "note": "Protocols differ between the studies behind these lines. Numbers after ± are the reported error.", "chain of UniProt Q9NZJ5 (whole entry, looked up)": "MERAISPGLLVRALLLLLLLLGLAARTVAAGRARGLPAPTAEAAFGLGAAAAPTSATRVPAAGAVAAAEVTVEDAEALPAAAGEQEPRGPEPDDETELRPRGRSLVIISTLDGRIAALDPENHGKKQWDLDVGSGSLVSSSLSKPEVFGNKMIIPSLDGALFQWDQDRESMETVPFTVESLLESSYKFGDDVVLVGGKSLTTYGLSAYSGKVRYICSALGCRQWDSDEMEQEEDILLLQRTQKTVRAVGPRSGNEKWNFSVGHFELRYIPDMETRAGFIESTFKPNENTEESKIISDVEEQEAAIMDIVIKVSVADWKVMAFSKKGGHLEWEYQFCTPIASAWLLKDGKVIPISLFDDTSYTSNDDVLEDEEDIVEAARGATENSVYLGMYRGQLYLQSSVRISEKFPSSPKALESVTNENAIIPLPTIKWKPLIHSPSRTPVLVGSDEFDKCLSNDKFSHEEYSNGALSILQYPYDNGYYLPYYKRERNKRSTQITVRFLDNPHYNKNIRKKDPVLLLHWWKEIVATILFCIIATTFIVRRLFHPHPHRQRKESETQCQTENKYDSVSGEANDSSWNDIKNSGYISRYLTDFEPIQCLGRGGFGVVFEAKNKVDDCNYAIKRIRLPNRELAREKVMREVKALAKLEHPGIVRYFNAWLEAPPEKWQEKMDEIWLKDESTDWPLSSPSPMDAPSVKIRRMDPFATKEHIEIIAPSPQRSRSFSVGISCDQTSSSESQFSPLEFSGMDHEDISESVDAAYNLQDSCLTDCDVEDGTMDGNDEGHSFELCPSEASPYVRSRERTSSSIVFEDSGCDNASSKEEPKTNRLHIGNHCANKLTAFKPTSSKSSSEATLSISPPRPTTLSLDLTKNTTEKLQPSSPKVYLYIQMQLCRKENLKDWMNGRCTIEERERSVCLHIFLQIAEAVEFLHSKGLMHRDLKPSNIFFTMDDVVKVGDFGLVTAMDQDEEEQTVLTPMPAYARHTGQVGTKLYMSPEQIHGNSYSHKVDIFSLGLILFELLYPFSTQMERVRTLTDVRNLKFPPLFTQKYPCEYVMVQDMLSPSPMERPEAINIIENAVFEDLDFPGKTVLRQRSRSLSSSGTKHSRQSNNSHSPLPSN", "chain of UniProt P51617 (whole entry, looked up)": "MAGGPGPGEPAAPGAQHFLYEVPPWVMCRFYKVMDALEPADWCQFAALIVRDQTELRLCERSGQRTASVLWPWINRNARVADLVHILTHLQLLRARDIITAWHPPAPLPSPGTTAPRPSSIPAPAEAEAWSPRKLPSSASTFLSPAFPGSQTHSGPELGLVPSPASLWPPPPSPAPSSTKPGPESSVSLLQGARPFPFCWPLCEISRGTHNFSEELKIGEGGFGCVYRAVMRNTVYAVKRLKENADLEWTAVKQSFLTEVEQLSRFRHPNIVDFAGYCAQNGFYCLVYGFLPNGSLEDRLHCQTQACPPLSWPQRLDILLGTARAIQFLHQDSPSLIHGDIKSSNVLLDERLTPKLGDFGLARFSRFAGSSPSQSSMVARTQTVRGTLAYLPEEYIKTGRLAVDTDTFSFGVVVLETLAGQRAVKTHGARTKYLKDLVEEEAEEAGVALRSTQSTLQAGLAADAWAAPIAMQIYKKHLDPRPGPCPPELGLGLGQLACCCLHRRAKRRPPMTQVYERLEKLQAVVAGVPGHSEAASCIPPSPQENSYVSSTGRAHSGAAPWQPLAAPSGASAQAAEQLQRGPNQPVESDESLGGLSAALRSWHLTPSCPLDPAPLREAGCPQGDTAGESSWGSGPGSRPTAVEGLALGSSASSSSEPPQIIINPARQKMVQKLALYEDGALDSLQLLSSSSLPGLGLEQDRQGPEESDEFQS", "chain of UniProt P43250 (whole entry, looked up)": "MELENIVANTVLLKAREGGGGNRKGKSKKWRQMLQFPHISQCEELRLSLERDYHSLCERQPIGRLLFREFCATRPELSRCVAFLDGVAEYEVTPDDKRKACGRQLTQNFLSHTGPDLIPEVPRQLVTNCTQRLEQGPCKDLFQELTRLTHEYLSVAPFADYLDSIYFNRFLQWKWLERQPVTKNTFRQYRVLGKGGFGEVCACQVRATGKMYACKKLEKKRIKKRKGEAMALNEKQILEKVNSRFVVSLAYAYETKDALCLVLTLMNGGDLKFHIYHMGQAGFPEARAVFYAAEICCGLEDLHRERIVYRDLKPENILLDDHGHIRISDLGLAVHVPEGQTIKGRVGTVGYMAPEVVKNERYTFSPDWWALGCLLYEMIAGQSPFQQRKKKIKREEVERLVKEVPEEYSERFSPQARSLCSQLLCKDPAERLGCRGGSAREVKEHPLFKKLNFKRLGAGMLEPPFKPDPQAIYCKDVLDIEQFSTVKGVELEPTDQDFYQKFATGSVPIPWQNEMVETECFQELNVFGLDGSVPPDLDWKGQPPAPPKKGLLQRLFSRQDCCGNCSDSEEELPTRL", "chain of UniProt O15197 (whole entry, looked up)": "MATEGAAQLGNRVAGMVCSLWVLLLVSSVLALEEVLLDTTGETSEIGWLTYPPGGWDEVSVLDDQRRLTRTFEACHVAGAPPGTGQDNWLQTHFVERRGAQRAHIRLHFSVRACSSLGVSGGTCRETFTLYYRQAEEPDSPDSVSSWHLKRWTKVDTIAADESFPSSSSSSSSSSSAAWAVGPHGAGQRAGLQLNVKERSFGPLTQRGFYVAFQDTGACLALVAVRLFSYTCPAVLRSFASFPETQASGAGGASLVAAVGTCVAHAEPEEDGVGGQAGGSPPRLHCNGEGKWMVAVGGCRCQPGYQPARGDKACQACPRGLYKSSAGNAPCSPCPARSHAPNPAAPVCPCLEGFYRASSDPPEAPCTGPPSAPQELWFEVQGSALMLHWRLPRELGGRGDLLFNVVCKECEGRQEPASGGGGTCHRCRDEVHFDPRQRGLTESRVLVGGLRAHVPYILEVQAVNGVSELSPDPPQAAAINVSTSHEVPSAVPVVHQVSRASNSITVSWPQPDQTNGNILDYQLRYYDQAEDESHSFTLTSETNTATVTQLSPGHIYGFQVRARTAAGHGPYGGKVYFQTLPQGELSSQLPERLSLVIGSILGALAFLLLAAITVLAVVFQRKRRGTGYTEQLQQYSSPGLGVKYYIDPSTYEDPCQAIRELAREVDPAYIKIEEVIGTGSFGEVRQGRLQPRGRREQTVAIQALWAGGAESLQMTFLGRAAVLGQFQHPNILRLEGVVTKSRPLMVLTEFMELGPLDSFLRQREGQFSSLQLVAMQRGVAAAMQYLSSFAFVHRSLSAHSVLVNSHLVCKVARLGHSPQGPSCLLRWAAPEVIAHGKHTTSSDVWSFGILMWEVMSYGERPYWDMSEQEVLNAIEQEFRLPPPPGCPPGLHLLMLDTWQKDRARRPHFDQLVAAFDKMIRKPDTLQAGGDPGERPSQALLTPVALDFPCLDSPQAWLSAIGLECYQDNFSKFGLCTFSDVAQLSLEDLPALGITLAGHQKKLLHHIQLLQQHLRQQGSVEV", "chain of UniProt P10721 (whole entry, unmodified, looked up)": "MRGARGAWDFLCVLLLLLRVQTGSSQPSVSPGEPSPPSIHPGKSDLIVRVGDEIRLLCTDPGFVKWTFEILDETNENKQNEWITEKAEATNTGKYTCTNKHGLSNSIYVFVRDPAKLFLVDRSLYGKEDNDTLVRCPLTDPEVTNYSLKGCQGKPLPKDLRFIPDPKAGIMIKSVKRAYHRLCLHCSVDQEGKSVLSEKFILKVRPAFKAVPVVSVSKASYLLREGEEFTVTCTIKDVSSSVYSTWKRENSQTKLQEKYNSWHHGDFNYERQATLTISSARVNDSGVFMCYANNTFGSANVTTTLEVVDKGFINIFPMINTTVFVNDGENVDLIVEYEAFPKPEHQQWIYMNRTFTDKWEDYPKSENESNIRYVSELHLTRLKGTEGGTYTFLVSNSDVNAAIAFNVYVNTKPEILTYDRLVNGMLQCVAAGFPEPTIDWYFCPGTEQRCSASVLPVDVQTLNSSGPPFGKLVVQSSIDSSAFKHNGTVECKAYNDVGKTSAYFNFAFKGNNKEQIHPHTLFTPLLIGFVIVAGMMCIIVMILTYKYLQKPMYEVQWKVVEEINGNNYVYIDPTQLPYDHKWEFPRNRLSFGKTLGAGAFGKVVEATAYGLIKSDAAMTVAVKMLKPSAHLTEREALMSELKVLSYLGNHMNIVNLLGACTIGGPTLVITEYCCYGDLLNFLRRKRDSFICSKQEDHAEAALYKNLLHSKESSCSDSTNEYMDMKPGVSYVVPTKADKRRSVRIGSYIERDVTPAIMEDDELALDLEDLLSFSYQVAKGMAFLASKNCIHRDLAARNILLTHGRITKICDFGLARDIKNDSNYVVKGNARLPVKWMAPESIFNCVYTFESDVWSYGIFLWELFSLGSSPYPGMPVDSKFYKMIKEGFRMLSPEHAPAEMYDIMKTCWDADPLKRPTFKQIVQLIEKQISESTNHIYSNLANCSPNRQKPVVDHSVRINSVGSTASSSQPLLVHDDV", "chain of UniProt Q9Y6E0 (whole entry, looked up)": "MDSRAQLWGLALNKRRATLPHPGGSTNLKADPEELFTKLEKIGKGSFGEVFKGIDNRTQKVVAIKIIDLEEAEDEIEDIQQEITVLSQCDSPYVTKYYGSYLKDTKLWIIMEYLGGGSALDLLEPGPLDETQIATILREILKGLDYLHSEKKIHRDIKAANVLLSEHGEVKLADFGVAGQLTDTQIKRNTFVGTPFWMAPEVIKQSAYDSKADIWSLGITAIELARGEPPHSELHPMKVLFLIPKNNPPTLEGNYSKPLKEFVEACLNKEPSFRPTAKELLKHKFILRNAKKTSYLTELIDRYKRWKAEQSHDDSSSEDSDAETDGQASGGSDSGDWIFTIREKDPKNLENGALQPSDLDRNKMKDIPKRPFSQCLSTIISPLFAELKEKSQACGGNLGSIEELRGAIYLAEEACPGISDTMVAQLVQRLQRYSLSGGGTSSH"}
{"Structure (SMILES)": "COc1cc(Nc2ncc3c(n2)-c2ccc(Cl)cc2C(c2c(F)cccc2OC)=NC3)ccc1C(=O)O", "target": "TEK", "assay": "kinase activity", "setting": "1 µM", "remaining activity": "20%"}
{"Structure (SMILES)": "O=C(c1ccc(F)cc1)C1CCN(CCn2c(=O)[nH]c3ccccc3c2=O)CC1", "target": "Diacylglycerol kinase beta (Dgkb, Rattus norvegicus, UniProt P49621)", "assay": "enzyme activity, DAG kinase", "system": "HEK293T lysate overexpressing", "setting": "50 µM, unit not given, together with: [γ32P]-ATP", "scale": "relative to: DMSO vehicle", "remaining activity": 1.08}
{"Structure (SMILES)": "O=C(O)c1ccc(Nc2ncc3c(n2)-c2ccc(Cl)cc2C(c2c(F)cccc2F)=NC3)cc1", "target": "Arg(m)", "assay": "kinase activity", "setting": "1 µM", "remaining activity": "63%"}
{"Structure (SMILES)": "CNc1ncc2c(/C=C/C(=O)N3CCC(OC)CC3)nn(Cc3cccc(C(F)(F)F)c3)c2n1", "target": "EIF2AK3", "assay": "kinase activity, inhibitor", "setting": "1 µM", "scale": "relative to: untreated control", "remaining activity": "99%"}
{"Structure (SMILES)": "COc1cc(N2CCN(C)CC2)ccc1Nc1nc(N)n(C(=O)NCc2ccccc2S(=O)(=O)C(C)C)n1", "target": "Ephrin type-B receptor 6 (EPHB6, Homo sapiens, UniProt O15197)", "assay": "enzyme activity", "setting": "10 µM", "scale": "relative to: control", "remaining activity": "0.15%"}
{"Structure (SMILES)": "O=C1NC(=O)/C(=C/c2ccc(-c3ccc(F)cc3O)o2)S1", "target": "Dual specificity tyrosine-phosphorylation-regulated kinase 1A (DYRK1A, Homo sapiens, UniProt Q13627)", "assay": "enzyme activity", "setting": "10 µM", "remaining activity": "3%"}
{"Structure (SMILES)": "Cc1cc(NC(=O)c2cccc(NC(=O)/C=C/CN(C)C)c2)ccc1Nc1nccc(-c2cccnc2)n1", "target": "Mitogen-activated protein kinase 8 (MAPK8, Homo sapiens, UniProt P45983)", "assay": "enzyme activity, inhibitor", "setting": "4.938 µM, 6 h, unit not given, together with: GSH 10 mM pre-incubation", "scale": "relative to: vehicle", "remaining activity": 0.255}
{"Structure (SMILES)": "COc1cc(-c2cncc3c2CN(C)Cc2cc(N4CCNCC4)ccc2-3)cc(OC)c1OC", "target": "EIF2AK3", "assay": "kinase activity", "setting": "1 µM, human enzyme, together with: ATP 10 µM", "scale": "relative to: DMSO control", "remaining activity": "109%"}
{"Structure (SMILES)": "COc1cc(F)ccc1-c1ncnc(Nc2cccc(C[S@](C)(=N)=O)c2)n1", "target": "Serine/threonine-protein kinase Nek2 (NEK2, Homo sapiens, UniProt P51955)", "assay": "kinase activity", "setting": "10 µM, together with: 10 µM ATP", "remaining activity": "84%"}
{"Structure (SMILES)": "CNCC(=O)O", "target": "Sodium- and chloride-dependent glycine transporter 2 (Homo sapiens, UniProt Q9Y345)", "assay": "glycine uptake, inhibitor, [3H]glycine uptake", "setting": "3000 µM, log concentration 3, together with: [3H]glycine", "scale": "relative to: no inhibitor", "remaining activity": "99.1%"}
{"Structure (SMILES)": "CC(C)OCCn1c(=S)[nH]c(=O)c2[nH]ccc21", "target": "Myeloperoxidase (MPO, Homo sapiens, UniProt P05164)", "assay": "chlorination activity, iodide-catalysed TMB HOCl production", "setting": "10 µM", "scale": "relative to: control", "remaining activity": "3.8%"}
{"Structure (SMILES)": "COc1ccc(F)cc1C(=O)NCc1ccc(-c2nn([C@@H](C)C(F)(F)F)c(N)c2C(N)=O)cc1", "target": "Serine/threonine-protein kinase 24 (STK24, Homo sapiens, UniProt Q9Y6E0)", "assay": "kinase activity, inhibitor, HotSpot radiometric", "setting": "100 nM, together with: ATP 10 µM", "remaining activity": "92.4 ± 0.3%"}
{"Structure (SMILES)": "Nc1ncnc2c1cnn2C1CCCCC1", "target": "Inositol-tetrakisphosphate 1-kinase (Homo sapiens, UniProt Q13572)", "assay": "enzyme activity, inhibitor, radiometric kinase", "setting": "10 µM, together with: ATP 1 mM", "scale": "relative to: control", "remaining activity": "~100%"}
{"Structure (SMILES)": "C=CC(=O)N1CCC[C@@H](n2nc(-c3ccc(Oc4ccccc4)cc3)c3c(N)ncnc32)C1", "target": "Tyrosine-protein kinase CSK (CSK, Homo sapiens, UniProt P41240)", "assay": "kinase activity, inhibitor, HotSpot radiometric", "setting": "100 nM, together with: ATP 10 µM", "remaining activity": "14.2 ± 0.1%"}
{"Structure (SMILES)": "C1=C/COCc2cc(ccc2OCCN2CCCC2)Nc2nccc(n2)-c2cccc(c2)COC/1", "target": "Epidermal growth factor receptor (EGFR, Homo sapiens, UniProt P00533, del746-750)", "setting": "concentration not given", "scale": "relative to: untreated control", "remaining activity": "71%"}
{"Structure (SMILES)": "O=C(NC1CCC1)c1ccc2nc(-c3cccc(NS(=O)(=O)NCCN4CCCCC4)c3)cn2c1", "target": "Mast/stem cell growth factor receptor Kit (KIT, Homo sapiens, UniProt P10721, V559D/V654A)", "assay": "enzyme activity", "setting": "10 µM", "remaining activity": "88%"}
{"Structure (SMILES)": "NC/C(=C\\F)COc1cccc(Cn2c(=S)[nH]c(=O)c3[nH]cnc32)c1", "target": "Peroxidasin homolog (PXDN, Homo sapiens, UniProt Q92626)", "assay": "Amplex UltraRed", "setting": "2.5 µM", "scale": "relative to: control", "remaining activity": "88%"}
{"Structure (SMILES)": "CC(C)(C)C(=O)c1sc(NC2CCCCC2)nc1N", "target": "AMP-activated protein kinase", "assay": "enzyme activity, inhibitor", "setting": "10 µM", "remaining activity": "101%"}
{"Structure (SMILES)": "Cc1ccc(NC(=O)c2ccc(C)c(C(F)(F)F)c2)cc1C#Cc1nn(C2CCC(O)CC2)c2ncnc(N)c12 (stereo not shown)", "target": "Phosphatidylinositol 4,5-bisphosphate 3-kinase catalytic subunit alpha isoform, with p85 alpha (Pik3ca, Mus musculus, UniProt P42337, E545K)", "assay": "enzyme activity, inhibitor", "setting": "10 µM, p110a(E545K)/p85a)(m mouse, together with: ATP 10 µM", "remaining activity": "87%"}
{"Structure (SMILES)": "CN(C)CC#Cc1ccc2[nH]c3c(c2c1)-c1nc(N)ncc1CCC3", "target": "Serine/threonine-protein kinase PAK 6 (PAK6, Homo sapiens, UniProt Q9NQU5)", "assay": "kinase activity, inhibitor, radiometric", "setting": "1 µM, together with: ATP at Km", "remaining activity": "77%"}
{"Structure (SMILES)": "Cc1cc(Nc2cc(N3CCN(C)CC3)nc(Sc3ccc(NC(=O)C4CC4)cc3)n2)[nH]n1", "target": "Glycogen synthase kinase-3 alpha (GSK3A, Homo sapiens, UniProt P49840)", "assay": "kinase activity, KinaseProfiler", "setting": "0.03 µM, species human", "scale": "relative to: control", "remaining activity": "98%"}
{"Structure (SMILES)": "Nc1ncc2c(n1)-c1c([nH]c3ccc(-c4ccc(F)cc4)cc13)CCC2", "target": "Tau-tubulin kinase 1 (TTBK1, Homo sapiens, UniProt Q5TCY1)", "assay": "kinase activity, inhibitor, radiometric", "setting": "1 µM, together with: ATP at Km", "remaining activity": "97%"}
{"Structure (SMILES)": "COc1cc(N2CCN(C)CC2)ccc1Nc1nc(N)n(C(=S)NCc2c(Cl)cccc2Cl)n1", "target": "Interleukin-1 receptor-associated kinase 1 (IRAK1, Homo sapiens, UniProt P51617)", "assay": "enzyme activity", "setting": "10 µM", "scale": "relative to: control", "remaining activity": "0.2%"}
{"Structure (SMILES)": "C=CC(=O)N1CCC[C@@H](n2nc(-c3ccc(Oc4ccccc4)cc3)c3c(N)ncnc32)C1", "target": "Vascular endothelial growth factor receptor 1 (FLT1, Homo sapiens, UniProt P17948)", "setting": "10 µM", "remaining activity": "52.1%"}
{"Structure (SMILES)": "CC#CC(=O)N1CCC[C@H]1c1nc(-c2ccc(C(=O)Nc3ccccn3)cc2)c2c(N)nccn12", "target": "G protein-coupled receptor kinase 6 (GRK6, Homo sapiens, UniProt P43250)", "assay": "kinase activity, inhibitor, HotSpot radiometric", "setting": "100 nM, together with: ATP 10 µM", "remaining activity": "105 ± 1.7%"}
{"note": "Some of these lines once more:"}
{"Structure (SMILES)": "C1=C/COCc2cc(ccc2OCCN2CCCC2)Nc2nccc(n2)-c2cccc(c2)COC/1", "target": "Epidermal growth factor receptor (EGFR, Homo sapiens, UniProt P00533, del746-750)", "setting": "concentration not given", "scale": "relative to: untreated control", "remaining activity": "71%"}
{"Structure (SMILES)": "COc1cc(N2CCN(C)CC2)ccc1Nc1nc(N)n(C(=O)NCc2ccccc2S(=O)(=O)C(C)C)n1", "target": "Ephrin type-B receptor 6 (EPHB6, Homo sapiens, UniProt O15197)", "assay": "enzyme activity", "setting": "10 µM", "scale": "relative to: control", "remaining activity": "0.15%"}
{"Structure (SMILES)": "CN(C)CC#Cc1ccc2[nH]c3c(c2c1)-c1nc(N)ncc1CCC3", "target": "Serine/threonine-protein kinase PAK 6 (PAK6, Homo sapiens, UniProt Q9NQU5)", "assay": "kinase activity, inhibitor, radiometric", "setting": "1 µM, together with: ATP at Km", "remaining activity": "77%"}
